Measured values collected from several papers.
A part holds a random share of what one study measured.

Series 1
Target: Prothrombin, mature alpha-thrombin (F2, Homo sapiens, UniProt P00734)
Method: aptamer microarray, sandwich
Molecule type: DNA with 2'F-ANA
Sample: in vitro
Tested at: 200 nM
Setting: whole 15-mer aptamer, many near background
With: Cy3 exosite-II aptamer, 400 nM
Direction: higher = stronger binding
Sequence	mean fluorescence intensity
GGTTGGTGTGGTTGG (2'F-ANA at 1 3 4 5 6 9 10 11 12 13 14 15)	47.8 a.u.
GGTTGGTGTGGTTGG (2'F-ANA at 1 2 4 7 8 9 12)	277 a.u.
GGTTGGTGTGGTTGG (2'F-ANA at 2 4 5 6 15)	66.4 a.u.
GGTTGGTGTGGTTGG (2'F-ANA at 1 4 5 8 9 10)	55.8 a.u.

Series 2
Target: TAR DNA-binding protein 43, full length, His tag (TARDBP, Homo sapiens, UniProt Q13148, residues 1-414)
Method: RNA Bind-n-Seq
Molecule type: RNA
Sample: in vitro
Tested at: 20 nM
Setting: 6-mer, flanks averaged, single round
With: 150 mM KCl
Baseline: input library
Direction: higher = stronger binding
Sequence	6-mer enrichment (R)
AAGAGC	0.84
GCCUUG	0.975
GUUGGA	1.22
CCUGUA	0.65
GCGUAG	1.45

Series 3
Target: Histone acetyltransferase KAT6A, winged helix 1, GST fusion (KAT6A, Homo sapiens, UniProt Q92794, residues 1-85)
Method: protein binding microarray
Molecule type: double-stranded DNA, one strand shown
Sample: in vitro
Tested at: not given
Setting: 8-mer, flanks averaged, mean of 2 arrays, mostly near background
Baseline: not given
Direction: higher = stronger binding
Construct (chain): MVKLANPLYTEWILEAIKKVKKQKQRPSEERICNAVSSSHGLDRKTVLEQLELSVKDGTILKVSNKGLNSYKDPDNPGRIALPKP
Sequence	E-score
GGGTGGCA	-0.101
CTTGGTTA	-0.109
AAGTGGCA	-0.225
ACACCCTC	-0.107
AAACACAG	-0.281

Mixed results
Molecule	target	test	test system	conditions	scale	measurement	value
PhoQ, residues 284 288 289 292 302 303 TGYLSA	PhoP, residues 12 14 15 18 19 NQAHL (Escherichia coli, UniProt P23836)	Sort-seq, measured: YFP reporter	E. coli	PhoQ-PhoP variant library, with: 10 µM Mg2+	baseline: high Mg2+ state, higher = stronger signaling	fold induction	14.7

Repeated from above (series 2):
Sequence	6-mer enrichment (R)
AAGAGC	0.84
GCCUUG	0.975
